Published values of several laboratories.
Each line is one published result; not all experiments were run side by side. “And” joins repeats or separate records; there may be more than shown. ± marks the error that the study gave.
Sequence of UniProt P21554 (whole entry, unmodified, looked up): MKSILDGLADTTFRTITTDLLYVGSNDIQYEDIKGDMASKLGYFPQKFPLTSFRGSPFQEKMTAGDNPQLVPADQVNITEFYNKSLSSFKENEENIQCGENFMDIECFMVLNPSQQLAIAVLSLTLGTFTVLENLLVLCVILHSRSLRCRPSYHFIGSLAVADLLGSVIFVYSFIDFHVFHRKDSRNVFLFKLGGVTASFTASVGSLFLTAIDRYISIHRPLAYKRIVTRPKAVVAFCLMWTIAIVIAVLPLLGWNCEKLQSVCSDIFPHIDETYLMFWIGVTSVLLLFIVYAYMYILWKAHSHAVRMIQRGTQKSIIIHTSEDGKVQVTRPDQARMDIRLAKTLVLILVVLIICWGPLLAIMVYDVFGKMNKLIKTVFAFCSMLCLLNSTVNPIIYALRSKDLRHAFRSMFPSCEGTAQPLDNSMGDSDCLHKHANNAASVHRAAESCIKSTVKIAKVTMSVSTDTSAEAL
Sequence of UniProt Q9Y2J8 (whole entry, looked up): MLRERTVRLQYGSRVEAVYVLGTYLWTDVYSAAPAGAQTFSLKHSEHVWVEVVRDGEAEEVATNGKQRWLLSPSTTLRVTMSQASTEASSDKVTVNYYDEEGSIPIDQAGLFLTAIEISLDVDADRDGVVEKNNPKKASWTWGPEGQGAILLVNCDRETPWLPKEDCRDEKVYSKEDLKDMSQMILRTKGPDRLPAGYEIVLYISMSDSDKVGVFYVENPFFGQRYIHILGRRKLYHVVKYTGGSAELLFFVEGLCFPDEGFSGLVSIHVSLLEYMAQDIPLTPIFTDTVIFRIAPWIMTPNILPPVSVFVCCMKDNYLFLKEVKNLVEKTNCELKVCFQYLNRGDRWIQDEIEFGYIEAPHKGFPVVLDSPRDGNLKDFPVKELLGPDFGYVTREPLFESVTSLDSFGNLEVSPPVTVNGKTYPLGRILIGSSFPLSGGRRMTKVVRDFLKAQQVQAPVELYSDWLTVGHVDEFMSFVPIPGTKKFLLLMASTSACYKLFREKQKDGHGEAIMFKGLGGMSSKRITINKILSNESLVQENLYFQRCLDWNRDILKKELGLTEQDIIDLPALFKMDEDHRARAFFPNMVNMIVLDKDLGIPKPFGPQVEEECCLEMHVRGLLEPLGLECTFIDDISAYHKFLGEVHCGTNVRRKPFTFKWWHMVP
Sequence of UniProt P11362 (whole entry, unmodified, looked up): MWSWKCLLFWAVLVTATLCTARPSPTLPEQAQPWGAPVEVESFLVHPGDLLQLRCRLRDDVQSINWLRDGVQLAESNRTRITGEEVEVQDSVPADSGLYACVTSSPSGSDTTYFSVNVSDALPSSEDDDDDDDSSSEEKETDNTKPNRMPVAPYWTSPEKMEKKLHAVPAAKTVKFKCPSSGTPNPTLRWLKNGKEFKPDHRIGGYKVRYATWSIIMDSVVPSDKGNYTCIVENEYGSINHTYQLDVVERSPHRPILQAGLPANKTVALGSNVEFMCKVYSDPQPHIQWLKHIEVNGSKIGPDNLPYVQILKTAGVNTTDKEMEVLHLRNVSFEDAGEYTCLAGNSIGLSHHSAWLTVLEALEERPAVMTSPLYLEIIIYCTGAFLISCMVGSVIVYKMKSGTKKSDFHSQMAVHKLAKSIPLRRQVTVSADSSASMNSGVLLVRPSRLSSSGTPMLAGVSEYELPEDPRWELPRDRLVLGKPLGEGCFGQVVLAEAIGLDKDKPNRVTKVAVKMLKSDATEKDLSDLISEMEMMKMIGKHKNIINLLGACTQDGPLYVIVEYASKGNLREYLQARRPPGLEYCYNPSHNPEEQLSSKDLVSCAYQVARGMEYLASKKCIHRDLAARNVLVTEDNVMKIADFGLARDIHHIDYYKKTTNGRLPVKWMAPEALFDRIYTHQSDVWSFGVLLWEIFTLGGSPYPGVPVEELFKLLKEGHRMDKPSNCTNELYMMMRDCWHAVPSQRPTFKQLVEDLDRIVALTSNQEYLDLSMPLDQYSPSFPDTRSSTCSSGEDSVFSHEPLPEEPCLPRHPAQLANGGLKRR
Sequence of UniProt P08908 (whole entry, looked up): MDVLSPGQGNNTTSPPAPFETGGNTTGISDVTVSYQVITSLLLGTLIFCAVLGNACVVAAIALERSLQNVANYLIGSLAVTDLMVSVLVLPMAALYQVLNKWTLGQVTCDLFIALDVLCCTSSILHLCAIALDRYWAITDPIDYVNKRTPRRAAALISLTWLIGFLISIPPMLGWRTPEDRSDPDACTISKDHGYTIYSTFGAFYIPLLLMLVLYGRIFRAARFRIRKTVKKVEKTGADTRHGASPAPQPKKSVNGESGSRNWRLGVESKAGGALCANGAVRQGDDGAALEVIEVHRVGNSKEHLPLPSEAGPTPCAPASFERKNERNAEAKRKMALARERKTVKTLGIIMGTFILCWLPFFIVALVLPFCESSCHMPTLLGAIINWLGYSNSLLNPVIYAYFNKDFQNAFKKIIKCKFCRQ
Sequence of UniProt P54310 (whole entry, looked up): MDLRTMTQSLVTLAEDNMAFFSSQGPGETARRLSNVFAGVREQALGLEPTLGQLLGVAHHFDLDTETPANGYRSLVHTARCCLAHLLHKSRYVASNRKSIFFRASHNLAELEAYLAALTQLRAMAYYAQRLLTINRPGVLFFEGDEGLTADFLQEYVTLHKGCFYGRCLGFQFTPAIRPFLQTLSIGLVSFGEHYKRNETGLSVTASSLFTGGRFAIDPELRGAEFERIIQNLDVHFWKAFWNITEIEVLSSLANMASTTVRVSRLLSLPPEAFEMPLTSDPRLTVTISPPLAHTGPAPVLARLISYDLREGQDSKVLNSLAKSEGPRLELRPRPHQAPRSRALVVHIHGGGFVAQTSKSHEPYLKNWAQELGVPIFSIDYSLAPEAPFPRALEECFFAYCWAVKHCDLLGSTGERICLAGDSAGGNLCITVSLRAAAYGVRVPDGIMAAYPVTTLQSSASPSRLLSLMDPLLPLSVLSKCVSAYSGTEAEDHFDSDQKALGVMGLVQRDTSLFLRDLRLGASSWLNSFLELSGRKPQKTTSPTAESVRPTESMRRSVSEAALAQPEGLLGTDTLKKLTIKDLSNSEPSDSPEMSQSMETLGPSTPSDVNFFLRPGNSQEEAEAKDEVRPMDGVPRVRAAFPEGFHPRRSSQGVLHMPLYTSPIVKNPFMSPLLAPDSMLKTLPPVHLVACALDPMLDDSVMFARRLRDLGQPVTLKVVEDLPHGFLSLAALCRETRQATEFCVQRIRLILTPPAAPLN
Sequence of UniProt Q15303 (whole entry, looked up): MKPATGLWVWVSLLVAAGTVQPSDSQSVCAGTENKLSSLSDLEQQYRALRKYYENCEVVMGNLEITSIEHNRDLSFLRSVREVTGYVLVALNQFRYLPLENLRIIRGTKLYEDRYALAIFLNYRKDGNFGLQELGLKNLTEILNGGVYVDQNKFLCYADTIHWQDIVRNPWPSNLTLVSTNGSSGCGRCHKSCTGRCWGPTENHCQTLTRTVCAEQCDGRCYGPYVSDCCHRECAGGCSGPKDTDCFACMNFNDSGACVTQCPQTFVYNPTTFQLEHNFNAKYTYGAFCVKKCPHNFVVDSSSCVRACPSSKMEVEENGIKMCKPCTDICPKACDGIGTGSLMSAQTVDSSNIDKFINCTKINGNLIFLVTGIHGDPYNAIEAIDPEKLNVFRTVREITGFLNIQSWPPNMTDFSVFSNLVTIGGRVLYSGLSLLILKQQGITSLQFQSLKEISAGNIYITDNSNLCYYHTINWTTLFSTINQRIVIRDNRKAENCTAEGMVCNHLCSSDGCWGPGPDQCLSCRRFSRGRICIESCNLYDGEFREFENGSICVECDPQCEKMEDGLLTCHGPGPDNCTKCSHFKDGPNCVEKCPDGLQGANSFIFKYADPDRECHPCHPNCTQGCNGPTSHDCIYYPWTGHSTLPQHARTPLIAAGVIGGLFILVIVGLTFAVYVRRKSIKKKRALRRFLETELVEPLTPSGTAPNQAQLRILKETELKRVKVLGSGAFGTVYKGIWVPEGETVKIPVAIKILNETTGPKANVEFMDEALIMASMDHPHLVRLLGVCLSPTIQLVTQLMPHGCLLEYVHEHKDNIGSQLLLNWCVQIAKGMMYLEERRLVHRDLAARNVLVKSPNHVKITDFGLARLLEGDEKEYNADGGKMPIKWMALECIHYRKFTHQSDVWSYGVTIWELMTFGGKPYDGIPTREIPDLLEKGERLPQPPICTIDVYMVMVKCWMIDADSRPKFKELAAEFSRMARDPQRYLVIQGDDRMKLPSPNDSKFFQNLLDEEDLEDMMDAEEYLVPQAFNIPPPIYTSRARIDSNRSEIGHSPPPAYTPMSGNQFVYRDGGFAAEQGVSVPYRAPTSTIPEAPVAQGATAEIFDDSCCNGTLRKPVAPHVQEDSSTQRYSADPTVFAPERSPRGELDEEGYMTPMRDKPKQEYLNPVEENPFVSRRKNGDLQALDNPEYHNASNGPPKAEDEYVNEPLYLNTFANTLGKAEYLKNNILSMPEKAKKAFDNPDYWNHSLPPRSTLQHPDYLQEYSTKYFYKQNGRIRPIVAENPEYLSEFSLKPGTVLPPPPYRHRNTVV
Sequence of UniProt P07948 (whole entry, looked up): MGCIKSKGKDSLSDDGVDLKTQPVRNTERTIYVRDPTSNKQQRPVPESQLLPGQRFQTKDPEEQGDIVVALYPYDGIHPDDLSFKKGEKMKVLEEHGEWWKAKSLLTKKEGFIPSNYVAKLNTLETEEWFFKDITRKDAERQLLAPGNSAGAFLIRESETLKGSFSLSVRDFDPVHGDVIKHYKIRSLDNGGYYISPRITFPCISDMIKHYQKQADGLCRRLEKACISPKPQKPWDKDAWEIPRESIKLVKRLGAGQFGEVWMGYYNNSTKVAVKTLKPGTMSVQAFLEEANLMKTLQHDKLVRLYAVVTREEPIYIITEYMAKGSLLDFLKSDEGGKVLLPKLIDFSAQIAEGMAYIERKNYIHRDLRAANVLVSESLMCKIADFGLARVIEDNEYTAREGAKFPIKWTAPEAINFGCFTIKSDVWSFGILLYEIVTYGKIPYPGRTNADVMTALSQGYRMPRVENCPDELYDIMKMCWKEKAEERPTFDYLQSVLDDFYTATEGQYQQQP

CC(C)CC(O)(CC(C)C)c1cn(C(=O)N2CCCC2)nn1  activity ratio (Lipe (Mus musculus, UniProt P54310); enzyme activity, inhibitor, competitive ABPP-SILAC; mouse T-cells; concentration not given, 4 h, treated in situ; relative to: DMSO): 1.39
O=C1NC(=O)c2c1c1cc(F)c[n+]3c1c1c2c2cc(O)ccc2[n]1[Ru-4]312([N]=C=S)[S+]3CC[S+]1CC[S+]2CC3 (centres unmarked)  remaining activity (EPHA7 (Homo sapiens, UniProt Q15375); enzyme activity; 100 nM, human enzyme, with: 10 µM ATP; relative to: untreated): 109%
CN(C)[C@H]1C[C@@]23CC[C@@]4(O2)C(=CC[C@]2(C)[C@@H](c5ccc6ccncc6c5)CC[C@H]24)C=C3[C@@H](O)[C@@H]1O  inhibition (FES (Homo sapiens, UniProt P07332); ATP probe labelling, inhibitor, KiNativ profiling; 1 µM): -8.5%
CC(C)[C@H]1NC(=O)C[C@H]2/C=C/CCSSC[C@@H](NC1=O)C(=O)N[C@H](Cc1cccc3ccccc13)C(=O)NCC(=O)O2  inhibition (FGFR1 (Homo sapiens, UniProt P11362, V561M); enzyme activity, inhibitor; 10 µM): -5.9%
Cc1ccc2c(C(C[N+](=O)[O-])c3cccs3)c(-c3ccccc3)[nH]c2c1 (centres unmarked)  Emax (CNR1 (Homo sapiens, UniProt P21554, Y172A); Gαi1-γ2 dissociation, BRET): 78.5 ± 2.35%
Nc1ccc(/C=C/C(=O)N2CCc3c(oc4c(-c5ccc(F)cc5)cc(-c5ccc(C(=O)N6CCC(F)(F)CC6)cn5)cc34)C2)cn1  remaining binding (ERBB4 (Homo sapiens, UniProt Q15303); binding, competition with immobilised ligand; 1 µM): 100%
CS(C)(=O)=Nc1ccc(-c2ccc(-c3nc4cc(O[C@@H]5CO[C@H]6[C@@H]5OC[C@H]6O)[nH]c4cc3F)cc2)cc1  inhibition (LYN (Homo sapiens, UniProt P07948); enzyme activity, inhibitor; 10 µM): 3%
COc1ccccc1C(C[N+](=O)[O-])c1c(-c2ccccc2)[nH]c2ccccc12 (centres unmarked)  Emax (CNR1 (Homo sapiens, UniProt P21554, N393A); G protein activation, agonist; 100%): 92.6 ± 4.06%
N[C@H](C(=O)N1CCCC1)C1CCN(c2nccc3c(-c4ncc(Cl)cc4Cl)cccc23)CC1  kcat (PADI2 (Homo sapiens, UniProt Q9Y2J8); enzyme activity; 9.6 µM, high-affinity site, with: Ca2+ 1.5 mM): 0.439 s⁻¹ and 0.393 s⁻¹
Cc1sc2c(c1C)C(c1ccc(Cl)cc1)=NC(CC(=O)OC(C)(C)C)c1nnc(C)n1-2 (centres unmarked)  remaining binding (HTR1A (Homo sapiens, UniProt P08908); ligand displacement, radioligand; 1 µM): 114%
CC(C)C[C@H](NC(=O)[C@H](CC(C)C)NC(=O)[C@H](CCCCN)NC(=O)[C@H](Cc1ccccc1)NC(=O)[C@@H](NC(=O)[C@H](CCCNC(=N)N)NC(=O)[C@@H](N)CCCCN)C(C)C)C(=O)N[C@@H](CCCCN)C(=O)N[C@@H](CCCNC(=N)N)C(=O)N[C@@H](Cc1ccc(O)cc1)C(=O)N[C@@H](Cc1c[nH]c2ccccc12)C(=O)N[C@@H](CCCNC(=N)N)C(=O)N[C@@H](CCC(N)=O)C(=O)N[C@@H](CC(C)C)C(=O)N[C@@H](CCCCN)C(=O)N[C@@H](CCCCN)C(=O)N1CCC[C@H]1C(=O)N[C@H](C(=O)N[C@@H](CCCNC(=N)N)C(=O)NCCOCCOCC(=O)O)C(C)C  complete DNA binding concentration (Pseudomonas aeruginosa; gel retardation; genomic DNA): ≥ 16 µM

Excerpt of the above:
CC(C)C[C@H](NC(=O)[C@H](CC(C)C)NC(=O)[C@H](CCCCN)NC(=O)[C@H](Cc1ccccc1)NC(=O)[C@@H](NC(=O)[C@H](CCCNC(=N)N)NC(=O)[C@@H](N)CCCCN)C(C)C)C(=O)N[C@@H](CCCCN)C(=O)N[C@@H](CCCNC(=N)N)C(=O)N[C@@H](Cc1ccc(O)cc1)C(=O)N[C@@H](Cc1c[nH]c2ccccc12)C(=O)N[C@@H](CCCNC(=N)N)C(=O)N[C@@H](CCC(N)=O)C(=O)N[C@@H](CC(C)C)C(=O)N[C@@H](CCCCN)C(=O)N[C@@H](CCCCN)C(=O)N1CCC[C@H]1C(=O)N[C@H](C(=O)N[C@@H](CCCNC(=N)N)C(=O)NCCOCCOCC(=O)O)C(C)C  complete DNA binding concentration (Pseudomonas aeruginosa; gel retardation; genomic DNA): ≥ 16 µM
N[C@H](C(=O)N1CCCC1)C1CCN(c2nccc3c(-c4ncc(Cl)cc4Cl)cccc23)CC1  kcat (PADI2 (Homo sapiens, UniProt Q9Y2J8); enzyme activity; 9.6 µM, high-affinity site, with: Ca2+ 1.5 mM): 0.439 s⁻¹ and 0.393 s⁻¹
